Experimental data collected from several papers.
Every numbered part comes from another study and shows a few of its results, in no order.

Sample 1
Target: Sal-like protein 4, full length isoform A (SALL4, Homo sapiens, UniProt Q9UJQ4, residues 1-1053)
Sequence of UniProt Q9UJQ4 (whole entry, looked up): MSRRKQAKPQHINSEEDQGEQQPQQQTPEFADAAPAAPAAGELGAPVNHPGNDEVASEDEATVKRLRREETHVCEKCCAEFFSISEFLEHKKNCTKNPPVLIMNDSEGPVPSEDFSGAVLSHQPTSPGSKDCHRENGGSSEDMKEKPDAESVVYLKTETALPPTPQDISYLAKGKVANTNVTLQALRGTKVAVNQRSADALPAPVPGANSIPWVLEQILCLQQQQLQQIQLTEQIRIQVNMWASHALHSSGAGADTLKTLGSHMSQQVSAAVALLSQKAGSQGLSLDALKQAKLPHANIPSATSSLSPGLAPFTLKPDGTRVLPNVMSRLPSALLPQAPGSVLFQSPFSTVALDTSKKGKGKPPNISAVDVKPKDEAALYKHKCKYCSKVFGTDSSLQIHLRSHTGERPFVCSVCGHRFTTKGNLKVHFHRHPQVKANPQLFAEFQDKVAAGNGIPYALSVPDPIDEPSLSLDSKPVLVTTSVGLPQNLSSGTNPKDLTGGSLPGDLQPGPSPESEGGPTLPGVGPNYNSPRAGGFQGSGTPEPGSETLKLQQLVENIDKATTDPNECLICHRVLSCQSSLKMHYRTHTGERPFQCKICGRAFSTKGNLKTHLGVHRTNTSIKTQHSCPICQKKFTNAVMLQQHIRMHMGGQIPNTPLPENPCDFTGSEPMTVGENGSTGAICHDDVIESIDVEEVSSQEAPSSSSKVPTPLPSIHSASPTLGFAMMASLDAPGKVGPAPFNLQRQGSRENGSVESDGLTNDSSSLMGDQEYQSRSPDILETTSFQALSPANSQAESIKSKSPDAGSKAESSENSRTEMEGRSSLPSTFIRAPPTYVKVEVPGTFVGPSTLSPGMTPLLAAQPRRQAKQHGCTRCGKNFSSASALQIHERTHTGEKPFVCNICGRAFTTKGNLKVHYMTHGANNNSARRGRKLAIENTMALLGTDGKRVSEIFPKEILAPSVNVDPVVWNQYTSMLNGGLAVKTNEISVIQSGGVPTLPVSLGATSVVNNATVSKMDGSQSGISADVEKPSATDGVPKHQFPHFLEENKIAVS
Method: universal PBM
Molecule type: double-stranded DNA, one strand shown
Matrix: in vitro
Concentration: 600 nM
Notes: 8-mer, flanks averaged, mean of replicates
Direction: higher = stronger binding
| Strand | E-score |
| --- | --- |
| AGAAGCAG | -0.00219 |
| AATGGTGT | 0.18 |
| GGCATCTA | -0.015 |
| GCCCAAGA | -0.246 |
| ATTAAATC | 0.257 |
| GTACACGA | -0.00211 |
| TCTTCGCA | 0.0595 |
| AGGACGGA | -0.173 |
| GTGGAACA | 0.022 |
| GCGTCGAC | -0.194 |
| ACGATAAT | 0.357 |
| CGACCATC | -0.196 |
| ACCGCACG | -0.143 |
| CCAGCCCA | -0.358 |
| CTACACAA | 0.116 |
| TACGACTA | 0.0908 |

Sample 2
Target: Ras GTPase-activating protein-binding protein 1, full length (G3BP1, Homo sapiens, UniProt Q13283)
Sequence of UniProt Q13283 (whole entry, looked up): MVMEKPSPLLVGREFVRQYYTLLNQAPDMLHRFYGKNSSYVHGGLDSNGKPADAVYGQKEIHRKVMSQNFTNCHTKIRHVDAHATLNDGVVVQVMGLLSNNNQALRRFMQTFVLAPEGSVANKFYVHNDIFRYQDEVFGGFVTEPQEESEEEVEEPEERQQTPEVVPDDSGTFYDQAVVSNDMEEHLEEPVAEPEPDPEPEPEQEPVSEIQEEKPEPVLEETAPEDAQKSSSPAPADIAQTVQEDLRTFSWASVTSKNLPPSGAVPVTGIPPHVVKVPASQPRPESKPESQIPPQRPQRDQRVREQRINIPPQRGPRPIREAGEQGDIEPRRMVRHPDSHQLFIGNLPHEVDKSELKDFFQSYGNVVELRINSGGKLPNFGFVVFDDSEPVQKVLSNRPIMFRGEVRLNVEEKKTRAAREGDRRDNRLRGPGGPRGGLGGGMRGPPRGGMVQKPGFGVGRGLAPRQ
Method: RNA Bind-n-Seq
Molecule type: RNA
Matrix: in vitro
Concentration: 200 nM
Notes: whole 134-nt RNA, ends assumed
Added: 150 mM KCl
Relative to: input library
Direction: higher = stronger binding
| Strand | log2 enrichment |
| --- | --- |
| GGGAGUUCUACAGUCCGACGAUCCUCAAGUCCUGUGCUACACAUCGUAUGUACCGAAUCGGUUUGGGUUUGGUUUGGAAAGUAUUAUGUUACGCCGUUCGGAUCUGCACUUCCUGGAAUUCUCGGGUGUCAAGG | -0.381 |
| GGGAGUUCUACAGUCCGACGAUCUAACUUUAGACGAGGAUCUGAUGGAUAUGGCAGUGGACGUGGAUUUGGGGAUGGCUAUAAUGGGUAUGGAGGAGGACCUGGAGGUGGCAAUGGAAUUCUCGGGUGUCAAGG | 0.357 |
| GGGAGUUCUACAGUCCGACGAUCUCAAGUCCUGUGCUACACAUCGUAUGUACCGAAUCGGCCCGGGGCCCGGGCCCGGAAAGUAUUAUGUUACGCCGUUCGGAUCUGCACUUCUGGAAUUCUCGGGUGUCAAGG | -1.19 |
| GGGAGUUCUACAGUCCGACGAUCCCUGUGCUACACAUCGUAUGUACCGAAUCGGGGUUUUUGGGGUUUGGGGUUUUUUUGGGGAAAGUAUUAUGUUACGCCGUUCGGAUCUGCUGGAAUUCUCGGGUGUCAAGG | 0.242 |
| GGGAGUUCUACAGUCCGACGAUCCCUGUGCUACACAUCGUAUGUACCGAAUCGGGGCCCCCCCGGCCCCCCCGGGCCCCCCCGGAAAGUAUUAUGUUACGCCGUUCGGAUCUGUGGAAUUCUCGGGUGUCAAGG | -0.167 |
| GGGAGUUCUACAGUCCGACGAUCUUCACUCUUUGAAGGAACGUGGUACUUAGUUAGGGUGGAUGAAAAGCACAGAAGAACUUACGCUCGGCGUCCCACUCCAAAUGAUGACACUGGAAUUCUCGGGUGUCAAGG | 0.51 |
| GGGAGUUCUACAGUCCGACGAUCCACAGACAACACGCACCCACACAGACGCAGAGGGAAGGGGUUGGGAUGGGGACAGGGUGCACAGCAGGGCGGGGUAGGACCCCAGCCCCUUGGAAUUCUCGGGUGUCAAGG | 1.73 |
| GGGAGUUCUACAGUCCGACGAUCAGUCCUGUGCUACACAUCGUAUGUACCGAAUCGGUUUUUGGUUUUUGGAAAAAAAGGAAAGUAUUAUGUUACGCCGUUCGGAUCUGCACUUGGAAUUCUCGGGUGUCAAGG | -1.32 |
| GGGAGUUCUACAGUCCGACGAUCUCAAGUCCUGUGCUACACAUCGUAUGUACCGAAUCGGAAAAGGAAAAGGAAAAGGAAAGUAUUAUGUUACGCCGUUCGGAUCUGCACUUCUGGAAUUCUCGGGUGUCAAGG | -1.21 |

Sample 3
Target: RNA binding protein fox-1 homolog 2, RRM domain, GST-SBP tag (RBFOX2, Homo sapiens, UniProt O43251-10, residues 100-194)
Method: RNA Bind-n-Seq
Molecule type: RNA
Matrix: in vitro
Concentration: 365 nM
Notes: natural RNA segment, single round, ends assumed
Relative to: no-protein control
Direction: higher = stronger binding
| Strand | RBNS enrichment (R) |
| --- | --- |
| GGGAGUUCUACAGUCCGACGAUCUUUGUAUUUUUAGUAGAGAAGGGAUUUCACCAUGUUGGCCGGGCUGGUCUCAAACUCCUAAGGUCAUCCACCUGCCUCGGCCUCCCAGAGUGCUGAGAUUACAGGCGUGAUGGAAUUCUCGGGUGCCAA | 0.567 |
| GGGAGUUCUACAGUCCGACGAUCCUGUGCACUAGAAAGUUGCAGCCCACAGCCCUUCAUGUGGACUCUGUCAUGACAUGCUAACUAGACUUCAGGGGAGCCACUUCUGUUUUCAGCCCCUCCCUGGAAUAGUGUGGAAUUCUCGGGUGCCAA | 0.643 |
| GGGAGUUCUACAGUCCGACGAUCAAGACCUGAAGUUCAACAGUGGAUUCCUUACCAAAUAGUUUUUAAAGUAUGCUCUAAGGAACAAUGUUUUAAUGAAAUCUUGGAUACAAAGUGGAAUAAAAGGUUUCUGAUGGAAUUCUCGGGUGCCAA | 0.447 |
| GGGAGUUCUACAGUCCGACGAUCUUCUCCCUUUUUCUGACAGUGUGGUUCAGCUCCUGUUUCAGAUUCUGUGUCAUUUUUCAAUUUACAAGUCACUUAAGUUUCUACCUGGAAUGUCAGGUGGCAAUGACAUCUGGAAUUCUCGGGUGCCAA | 0.507 |
| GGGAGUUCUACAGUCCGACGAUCGAUCUUACAGACUGUAUCAGUCUAAUUUUUAAAUUUUAAGUUAUUUUGUACAGCUUUGUAAAUUCUUAACAUUUUUAUAUUGCCAUGUUUAUUUUGUUUGGGUAAUUUGGUGGAAUUCUCGGGUGCCAA | 0.889 |
| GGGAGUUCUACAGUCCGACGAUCGCAAGGGCACUCGUGGAGUAUGUGUCCUGGGUGAGGUGGCACCACACCGAAUGAAUGCAUCUCUGGGAGCUGGCACCACAACCCUGAUGUAUAGGCUGUGUUGGUUUAUGUGGAAUUCUCGGGUGCCAA | 0.73 |
| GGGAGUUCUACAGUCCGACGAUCGCGGAAUGUAAGAUACGUCUCUAUGCCAAAUGGAGUUGUAGAAUGUACCCUCUCAGCCCAUAAACAGGAGGAAACCAUAUGUGAACACUACAGCCUCUGGCGAGGGCUCUUGGAAUUCUCGGGUGCCAA | 0.541 |
| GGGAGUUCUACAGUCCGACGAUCGUAAAGAUUUAAGUUAUUUUAAUUUAUUGUGGAUCAGAAACCUAGAUGAAACUGGUCAGAAUCUGUAAAUUACUUAGUUUAUAUCCACUUUGAGCAGGUAUCAAAUGAUUUGGAAUUCUCGGGUGCCAA | 0.576 |

Sample 4
Target: Interferon regulatory factor 7, full length, phosphomimetic (IRF7, Homo sapiens, UniProt Q92985, residues 1-503, S101K/S471D/S472D/S475D/S476D/S477D/S483D/S484D/S487D)
Method: protein-binding microarray
Molecule type: double-stranded DNA, one strand shown
Matrix: in vitro
Concentration: 250 nM
Notes: 60-bp whole probe
Added: salmon DNA 0.4 mg/ml
Relative to: random background probes
Direction: higher = stronger binding
Constant ends, left off below: GCCTAGCAC … GTCTTGATTCGCTTGACGCTGCTG
Residues (chain): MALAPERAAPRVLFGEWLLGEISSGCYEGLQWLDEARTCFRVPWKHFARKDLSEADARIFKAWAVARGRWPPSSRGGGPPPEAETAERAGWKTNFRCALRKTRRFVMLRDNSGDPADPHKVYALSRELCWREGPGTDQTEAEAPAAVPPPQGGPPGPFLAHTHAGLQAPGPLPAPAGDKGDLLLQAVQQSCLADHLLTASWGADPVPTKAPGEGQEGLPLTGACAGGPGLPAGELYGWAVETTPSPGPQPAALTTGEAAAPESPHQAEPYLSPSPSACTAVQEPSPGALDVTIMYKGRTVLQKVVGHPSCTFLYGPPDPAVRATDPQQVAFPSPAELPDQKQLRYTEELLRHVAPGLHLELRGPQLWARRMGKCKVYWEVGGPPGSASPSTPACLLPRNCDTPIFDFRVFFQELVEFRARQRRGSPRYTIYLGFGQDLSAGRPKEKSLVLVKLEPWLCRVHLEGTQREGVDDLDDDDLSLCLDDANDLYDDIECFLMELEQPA
| Strand | log fluorescence |
| --- | --- |
| GACGTTTTCGGGTTTCGAGACGTGCTA | 6.38 z-score |
| TTAGATCTCAGAATCGATTAGTGCTAG | 0.737 z-score |
| TCACAGTTTAATATCTAACTGTGCTAG | 0.202 z-score |
| GACGGTATCGACTCTCGGGACGTGCTA | 0.856 z-score |
| GGCGGTATCCTTATCCTGACGTGCTAG | -0.187 z-score |
| TTAGAACTGAGACTGGAGTAGTGCTAG | -0.385 z-score |
| GACGGTATCCTTCTCCTGATGTGCTAG | 0.241 z-score |
| GACGATTCAAGTTTCGAGACGTGCTAG | 4.03 z-score |
| TTAGGTCTCATTATCCTTTAGTGCTAG | 1.06 z-score |
| TTAGGACTGCTACTGCGTTAGTGCTAG | -0.722 z-score |
| TTAGGTTGCGACACTGGGTTAGTGCTA | -0.365 z-score |
| TTAGGTTTCGGTCTTGGTTAGTGCTAG | 8.13 z-score |
| ATTTTTTTCATTATTGTTTCGTGCTAG | 1.6 z-score |
| GGCGGTATCGACTTTCGGGACGTGCTA | 0.901 z-score |
| CACGGACTGGGACTGGGGACGTGCTAG | -0.434 z-score |
| CTTTCTCTCTGTGACACAGAGTGCTAG | 2.74 z-score |
| TCATGTGTCTGATTATTACTGTGCTAG | 0.102 z-score |
| TCAGCTCTAGGTTCTCTGACTGTGCTA | -0.425 z-score |
| GACGGTATCGACTTTCAGGACGTGCTA | 0.749 z-score |

Excerpt of the above (sample 4):
| Strand | log fluorescence |
| --- | --- |
| GACGGTATCCTTCTCCTGATGTGCTAG | 0.241 z-score |
| TTAGGTCTCATTATCCTTTAGTGCTAG | 1.06 z-score |
| TTAGGTTGCGACACTGGGTTAGTGCTA | -0.365 z-score |
